Published values collected from several papers.
Every numbered part comes from another study and shows a few of its results, in no order.

Set 1
Target: Ras GTPase-activating protein-binding protein 1, full length (G3BP1, Homo sapiens, UniProt Q13283)
UniProt Q13283, sequence (whole entry, looked up): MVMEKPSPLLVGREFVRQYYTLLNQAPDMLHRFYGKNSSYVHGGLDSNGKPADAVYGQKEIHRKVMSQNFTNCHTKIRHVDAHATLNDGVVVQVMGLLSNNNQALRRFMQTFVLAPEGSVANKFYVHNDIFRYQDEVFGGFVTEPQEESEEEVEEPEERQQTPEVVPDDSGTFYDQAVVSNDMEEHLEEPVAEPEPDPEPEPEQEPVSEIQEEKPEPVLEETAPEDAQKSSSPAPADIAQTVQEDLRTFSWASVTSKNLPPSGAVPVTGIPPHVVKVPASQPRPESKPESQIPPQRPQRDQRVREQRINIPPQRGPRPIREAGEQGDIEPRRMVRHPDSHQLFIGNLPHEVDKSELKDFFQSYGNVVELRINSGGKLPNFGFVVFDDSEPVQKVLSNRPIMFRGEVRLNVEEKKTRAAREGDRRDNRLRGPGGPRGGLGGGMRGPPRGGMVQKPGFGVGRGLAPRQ
Technique: RNA Bind-n-Seq
Form: RNA
Medium: in vitro
Tested at: 200 nM
Setting: whole 134-nt RNA, ends assumed
Added: 150 mM KCl
Relative to: input library
Reading: higher = stronger binding
Quantity: log2 enrichment
Shared flanks, not repeated: GGGAGUUCUACAGUCCGACGAUC … UGGAAUUCUCGGGUGUCAAGG
CACAGACAACACGCACCCACACAGACACAGAGGGAAGGGGUUGGGAAAAGGACAGGGUGCACAGCAGGGCGGGGUAGGACCCCAGCCCCU: 1.2
UCAAGUCCUGUGCUACACAUCGUAUGUACCGAAUCGGGAAAGGAAAGGGAAAGGGAAAGUAUUAUGUUACGCCGUUCGGAUCUGCACUUC: -0.619
AGUCCUGUGCUACACAUCGUAUGUACCGAAUCGGGGAGGGGUUUGGGGUUUUUGGGGAAAGUAUUAUGUUACGCCGUUCGGAUCUGCACU: 0.337
UACAUUCUUUACCCCUUGUUUUAAUUUGAACCCCACCAUAUGGAUUUUUUUCCUUAAGAAAAUCUCCUUUUAGGAGAUCAUGGUGUCACA: -0.199
UCCUGUGCUACACAUCGUAUGUACCGAAUCAAACCCCCCCAAACCCCCCCAAACCCAAAAAAGUAUUAUGUUACGCCGUUCGGAUCUGCA: 0.367
CUGUGCUACACAUCGUAUGUACCGAAUCGGUUUUUUUGGGGUUUUUUUGGGUUUUUUUGGGAAAGUAUUAUGUUACGCCGUUCGGAUCUG: -0.95
AGUCCUGUGCUACACAUCGUAUGUACCGAAUCGGGUUUUUGGGAAAAAAAGGGUGGGAAAGUAUUAUGUUACGCCGUUCGGAUCUGCACU: -0.114
ACCAUGCAGGGGGGCAUCUUUGGGAAGUGGGGCAAGGGGGGGAUAGGGAGGGGGGUAACACUUUGGGAACAGGUGGUCCCAGGUCGUUUC: 1.45
CUGUGCUACACAUCGUAUGUACCGAAUCGGGUUUUUUUGGGGUUUUUUUGGUUUUUUUGGGGAAAGUAUUAUGUUACGCCGUUCGGAUCU: -1
GUCCUGUGCUACACAUCGUAUGUACCGAAUCGGAAAAAAGGAAAAAAGGAAAAAAGGGGAAAGUAUUAUGUUACGCCGUUCGGAUCUGCA: -0.815
AAGUCCUGUGCUACACAUCGUAUGUACCGAAUCGGCCCCGGGCCCCGGGCCCCGGGGAAAGUAUUAUGUUACGCCGUUCGGAUCUGCACU: -0.857
CACAGACAACACGCACCCACACAGACACCGAGGGAAGGGGUUGGGAUGGGGACAGGGUGCACAGCAGGGCGGGGUAGGACCCCAGCCCCU: 1.73
CUCAAGUCCUGUGCUACACAUCGUAUGUACCGAAUCGGGAAGGGAAGGGAAGGAAAGUAUUAUGUUACGCCGUUCGGAUCUGCACUUCCA: -0.189
UCAAGUCCUGUGCUACACAUCGUAUGUACCGAAUCGGGGCCCGGCCCGGGCCCGGAAAGUAUUAUGUUACGCCGUUCGGAUCUGCACUUC: -1.19

Set 2
Target: Histone acetyltransferase KAT6A, both winged helices, GST fusion (KAT6A, Homo sapiens, UniProt Q92794, residues 1-181)
Technique: protein binding microarray
Form: double-stranded DNA, one strand shown
Medium: in vitro
Tested at: not given
Setting: 8-mer, flanks averaged, mean of 2 arrays, mostly near background
Relative to: not given
Reading: higher = stronger binding
Quantity: E-score
Construct (chain): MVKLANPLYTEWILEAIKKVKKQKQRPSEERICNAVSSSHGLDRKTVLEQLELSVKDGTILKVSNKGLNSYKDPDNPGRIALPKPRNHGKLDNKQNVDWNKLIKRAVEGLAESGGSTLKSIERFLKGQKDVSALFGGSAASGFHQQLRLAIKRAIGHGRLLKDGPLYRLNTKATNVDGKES
AATGTGAG: -0.207
ACCGGAAA: 0.15
CAGTGGCC: -0.0383
CTGCCCAG: -0.182
GGGCCAGA: -0.127
CAGTACCG: 0.203
CAGCCGGC: 0.312
AAGAAAAA: -0.0953
CATTGTGG: -0.153
CGGTCATC: 0.159
GCCCGTCC: 0.213
TAACGACA: 0.0402
CGACTGCG: 0.191
AAGTCCAT: -0.162
GTTCGAAC: -0.0943
CTAGGCTA: -0.0645
GATTCCGA: 0.176
AGCGCCGA: 0.33
ATGGTTGA: -0.0996
AAACAATG: -0.0936
CCTCCGTC: 0.0238

Set 3
Target: Centromere-binding protein 1, full length, N-terminal tag (CBF1, Saccharomyces cerevisiae, UniProt P17106, residues 1-351)
UniProt P17106, sequence (whole entry, looked up): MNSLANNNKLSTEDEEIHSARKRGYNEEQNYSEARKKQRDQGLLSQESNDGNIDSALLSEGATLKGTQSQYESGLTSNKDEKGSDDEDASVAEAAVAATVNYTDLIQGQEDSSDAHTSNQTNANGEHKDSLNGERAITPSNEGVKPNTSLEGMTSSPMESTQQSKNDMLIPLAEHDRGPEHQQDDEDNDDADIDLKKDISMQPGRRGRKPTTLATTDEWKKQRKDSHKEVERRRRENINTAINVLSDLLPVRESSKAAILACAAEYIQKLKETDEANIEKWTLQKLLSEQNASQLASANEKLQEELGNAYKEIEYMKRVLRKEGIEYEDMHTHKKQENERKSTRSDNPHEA
Technique: protein-binding microarray
Form: double-stranded DNA, one strand shown
Medium: in vitro
Tested at: 0.8 µM
Setting: whole 60-bp probe, no competitor
Reading: higher = stronger binding
Quantity: fluorescence intensity
Shared flanks, not repeated: … GTCTTGATTCGCTTGACGCTGCTG
CCTAACTACTATAAATACGGGTCATAGCTTCGTACA: 523 a.u.
CTACTAGTTAAAATGAACGTGTATTATATGGTATTC: 530 a.u.
TGTACGAAGCTATAAAACATGCGTATAGTAGTTAGG: 522 a.u.
CTATCAATAGAATGCCACGTATATATGGACTTATTC: 527 a.u.
CTATGTTATTGTCCTCACGTGAATTGAATTGAATTC: 6290 a.u.
GAAAAATAGCGACCGGACACCACGTAATGCAACTAG: 501 a.u.
GAACAATATTCGGGTGACGCCGCCCCTGTTTGATAG: 492 a.u.
CTATCACCGCTTTACCACGCAAAGATATCTGGATTC: 546 a.u.
GAACTATTCACGATGACCGTGACTCAGAAGGAATAG: 965 a.u.
CCTAACTACTATAATGACACGATATAGCTTCGTACA: 553 a.u.
CTAAACAATGTTGACCGCGTGGACCCTCCCAATTTC: 537 a.u.
GAAACATGTACATATCACGTAAGATGTTCCTATTAG: 543 a.u.
TGTACGAAGCTATGATGATGGATTATAGTAGTTAGG: 534 a.u.
CCTAACTACTATAGTGATGTGGCATAGCTTCGTACA: 537 a.u.
CTATTGATTCACCCCCTGATGTTTTTTAGGCCATTC: 569 a.u.
TGTACGAAGCTATAGCACGGGCATATAGTAGTTAGG: 551 a.u.
GAAGTTACAAAATTACACGTGACTTTTCTGGTCTAG: 12400 a.u.
GAATGACGGAATATTGCGATCACGTGAATTTTCTAG: 17800 a.u.
GAATCTAAAGTATGCTTCGTGCGTTTTAGGATATAG: 521 a.u.
GAACGCAAGTGATGGAATGTGATCATTAAAGGCTAG: 724 a.u.
CTAAAAGATAAACACCACGACGTATGCACGGATTTC: 512 a.u.
GAATGGGGACGTCGTTCACGTGCAAAAGTCGCCTAG: 5560 a.u.
CTATTCCAAGTACCTGATGTGTGCTTGCGAGTATTC: 521 a.u.
CTAATAACTTTATGTGTCACGTTCCTCAGGATTTTC: 2550 a.u.
CTAATTATATAAATGGGCCTGATGTTCGTTAAATTC: 497 a.u.

Set 4
Target: RNA binding protein fox-1 homolog 2, RRM domain, GST-SBP tag (RBFOX2, Homo sapiens, UniProt O43251-10, residues 100-194)
Technique: RNA Bind-n-Seq
Form: RNA
Medium: in vitro
Tested at: 365 nM
Setting: natural RNA segment, single round, ends assumed
Relative to: no-protein control
Reading: higher = stronger binding
Quantity: RBNS enrichment (R)
Shared flanks, not repeated: GGGAGUUCUACAGUCCGACGAUC … UGGAAUUCUCGGGUGCCAA
Residues (chain): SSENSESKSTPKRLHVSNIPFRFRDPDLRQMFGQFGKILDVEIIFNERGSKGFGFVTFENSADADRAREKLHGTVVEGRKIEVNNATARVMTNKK
GGAAUUUUGACAGGAUUUCUAGCAAGACAGAUUUCUUCUCGAAAGCUUUUCUUCCUCAGGAGUAUGAAUUUUCUGAGCUAGCUGCUGUAAAUUCAGUGAGGCUAAAGGGA: 0.397
AGCUUCAUUUUUCUUUUAUCCUGUCUGUCCUAAUAAAAACAAAAAUGGCCAAAAAGUGGAGAGGAAAGAAAAAGCUUCCACUUUUUAAAAUUUGUUUUGUAUUAGUUAUU: 0.87
UCCCGUUGUAUCCAGAGUUCUUAGAGCUUGUGUCUAAAGGGUAAUUCCCCAACCCUUCCUUAUGAGCAUUUUUAGAACAUUGGCUAAGACUAUUUUCCCCCAGUAGCGCU: 0.574
UUUGCCUUUGGCCUAGUAAGAUGCCUCUCCAGCUACUGAGCCCACAAGUAACAUGAGCGGAUAAAAAGAGACUUGUUUGUGCUAGAAAUGAGGGUCUAUGCUAUGAGGGG: 1.16
CCGGCCCGGGCGUCCUCCGCCAGCUCCUGUGACCAGCGCGUCUCCCGAUGCUCUCCGCCGUGUUCGUGUCCCCAGGCGCCCUCGCUGCAGCCCCGCCCCCGUGGGUCUCU: 0.383
CCCUUACUCUCUACCAUUUCCUUUAUGUGGGGAAACAUUUUAAGGUAAUAAAUAGGUUACUUACCAUCAUAUGUUCAUAUAGAUGAAACUAAUUUUUGGCUUAAGUCAGA: 0.347
CUCAGCAGUCCUUCAGGACUUCUGGUUCCUUCCGCCACCCUUCUCAAGAUUCUAGAAAUCAAAGGAGCCAUACAAUCCGGCAGGAGGCAGUGACUGUGGUCUCAGUGCUG: 0.464
AACAAUCUCUUGUGACUAAUGUCACUCAAAGCAUCUUGUAAAUCCUAGGGCUUCCUGGAAGUUAGUUGCCAAAGUCAUGCAAGCAUCACCUGUCAUUCUUGUGUUGGAGU: 0.515
UGUUUCCUAUUUAAUACAGCUGAAGUCAAAAUAUGUAAGAACACAUUUUAAAUACUCUACUUACAGUUGGCCCUCUGUGGUUAGUUCCACAUCUGUGGAUUCAACCAACC: 0.528
UAUGUAUUUUGGCCAAAAGCCAGCAGCACUUCACAAAAACAAAACACAAACCUAAGCUAACAAAAUGACUGCAUUCGUCUCUUUUUUAAAGGUAGAGAUUAAACUGUAUA: 0.967
GGAAUGGACUUUCCCCUAGGUAUCCAGGGAACCCAUUUUAGAAUUCGGGGGACCUGGCUUUGAGCUAGUUGGCCCCCAGCCCCAGCUGGUUUUUCUAAGGGUCAACUCAG: 0.25
CUGUUGUCGGUGAUUUGUUUGUCUUUCUGAUAGGUUGAAAAUUGUGUAAUAAACUUGAUGACGCUGUAAUCUUUUAUACUGCAUUGUAUUUUUUUCCUUUUGUAACAAAA: 0.372

A few entries again (set 3):
GAACTATTCACGATGACCGTGACTCAGAAGGAATAG: 965 a.u.
CCTAACTACTATAAATACGGGTCATAGCTTCGTACA: 523 a.u.
GAATCTAAAGTATGCTTCGTGCGTTTTAGGATATAG: 521 a.u.
GAACAATATTCGGGTGACGCCGCCCCTGTTTGATAG: 492 a.u.
GAATGGGGACGTCGTTCACGTGCAAAAGTCGCCTAG: 5560 a.u.
